Assay results collected from several papers.
± marks the error that the study gave. In brackets after ≈: the same amount, converted by molar mass.

CCc1c2c(nc3ccc(OC4OC(C(=O)O)C(O)C(O)C4O)cc13)-c1cc3c(c(=O)n1C2)COC(=O)C3(O)CC (centres unmarked)  AUC(0-inf) (human patients, plasma; intravenous, 42 mg/m^2 of parent drug): 801 ng·h/mL
COc1ccc(C)cc1NC(=O)OC1CC2CCCC(C1)N2Cc1ccc(CC[18F])cc1 (centres unmarked)  tumour to tissue ratio (BALB/c mice, EMT6 tumour; 30 min; relative to: tumour over lung): 0.22
CN(C)C(CNC(=O)Nc1cc(C(F)(F)F)ccc1N1CCOCC1)c1ccncc1 (centres unmarked)  serum glucose (mouse, serum; intraperitoneal, 120 mg/kg single dose): 254 mg/dL
CC[C@H](C)[C@@H]1NC(=O)[C@H](CCC(=O)O)NC(=O)[C@H](C)NC(=O)[C@H](CC(C)C)NC(=O)[C@H](CC(C)C)NC(=O)C2(CCCC=CCCCCCC[C@@](C)(C(=O)N[C@@H](CC(N)=O)C(=O)N[C@@H](CC(C)C)C(=O)N[C@@H](CO)C(=O)O)NC(=O)[C@H](CCCCN)NC1=O)CCCC=CCCC[C@](C)(NC(=O)[C@H](CCCNC(=N)N)NC(=O)[C@H](CC(N)=O)NC(=O)[C@H](CCC(=O)O)NC(=O)[C@@H]1CCCN1C(=O)[C@H](CC(N)=O)NC(=O)c1ccc3c(c1)C(=O)OC31c3ccc(O)cc3Oc3cc(O)ccc31)C(=O)N[C@@H](C)C(=O)N[C@@H](CCCCN)C(=O)N[C@@H](CCCCN)C(=O)N2 (some centres unmarked)  solubility limit: 2 µM (≈ 5.51 µg/mL)
CSCC[C@H](NC(=O)[C@H](Cc1ccc(O)cc1)NC(=O)[C@@H](CC(=O)O)NC(=O)CN1CCN(CC(=O)O)CCN(CC(=O)O)CCN(CC(=O)O)CC1)C(=O)NCC(=O)N[C@@H](Cc1c[nH]c2ccccc12)C(=O)N[C@@H](CCSC)C(=O)N[C@@H](CC(=O)O)C(=O)N[C@@H](Cc1ccccc1)C(N)=O  tumour-to-kidney ratio (MF1 nude mouse, male, AR-42J xenograft; intravenous, 0.2 µg, 4 h, 111In-labelled; relative to: tumour over kidney): 0.23
CC(=O)Oc1c2c(c3ccc4c(c3c1OC(C)=O)C=CC(=O)C4(C)C)OC[C@@H]2C  acute toxicity (BALB/c mice; intravenous, 50 and 25 mg/kg, body weight, organs, blood): no effect
COc1cc(C(=O)NCCOCCOCCOCCNC(=O)c2ccc([18F])nc2)ccc1NC(=O)C1NC(CC(C)(C)C)C(C#N)(c2ccc(Cl)cc2F)C1c1cccc(Cl)c1F (centres unmarked)  tumour-to-tissue ratio (athymic male mice, SJSA-1 xenograft; 1 h; relative to: tumour over muscle): 1.64 ± 0.26
CCCCCCCC/C=C\CCCCCCCCOP(O)(O)=S.N  Vz/F (mouse, male, nonirradiated; subcutaneous, single dose): 1340 mL/kg
CCCCCCCCCCCCC(=O)O.O=C1CCCC2C3CCCN4CCCC(CN12)C34 (centres unmarked)  standard Gibbs energy of micellization (electrical conductivity; water; 303.15 K, critical micelle concentration): -35.2 kJ/mol
CN[C@](C)(C[18F])C(=O)O  tissue uptake (SCID mouse U87 xenograft, heart; 30 min, post injection): 3.4 ± 1.3 %ID/g
CC(=O)CCN1CCN(C(=O)CC2N=C(c3ccc(Cl)cc3)c3c(sc(C)c3C)-n3c(C)nnc32)CC1 (centres unmarked)  pKa (experimental): 6.47 ± 0.02
C=Cc1cc(O)cc2nc(-c3ccc(O)c([76Br])c3)oc12  tissue uptake (female C57BL/6 mouse, ovaries; 3 h, high dose, together with: estradiol 20 µg blocking): 0.1 ± 0.04 %ID/g
Cc1cccc(O[C@H]2CCC[C@@H](C(C)CNCc3ccncc3)C2)c1 (relative stereo)  brain concentration (APP/PS1 mice, brain; oral, 25 mg/kg/day, 7 months): 100 to 1000 nM
CC(C)C[C@H](NC(=O)[C@H](CCCCN)NC(=O)[C@H](C)NC(=O)[C@H](CC(C)C)NC(=O)[C@H](CCCCN)NC(=O)[C@H](CCCCN)NC(=O)[C@H](C)NC(=O)[C@H](CC(C)C)NC(=O)[C@H](CCCCN)NC(=O)[C@H](C)NC(=O)[C@H](CC(C)C)NC(=O)[C@H](CCCCN)NC(=O)[C@H](Cc1c[nH]cn1)NC(=O)CNC(=O)CN)C(=O)N[C@@H](C)C(=O)N[C@@H](CCCCN)C(N)=O  HD10 (haemolysis; human red blood cells; 1 h): 4 µM
CC[C@H](C)C(=O)N1CCC(NC(=O)Nc2ccc(OC(F)(F)F)c(F)c2)CC1  Vd/F (human, plasma; oral, 24 mg, single dose, healthy volunteers): 153 L
CCCCCCCC(=O)OC[C@H](NC(=O)[C@H](CO)NC(=O)CN)C(=O)N[C@@H](Cc1ccccc1)C(=O)N[C@@H](CC(C)C)C(=O)N[C@@H](CO)C(=O)N1CCC[C@H]1C(=O)N[C@@H](CCC(=O)O)C(=O)N[C@@H](Cc1cnc[nH]1)C(=O)N[C@@H](CCC(N)=O)C(=O)N[C@@H](CCCNC(=N)N)C(=O)N[C@H](C(=O)N[C@@H](CCC(N)=O)C(=O)N[C@@H](CCC(N)=O)C(=O)N[C@@H](CCCNC(=N)N)C(=O)N[C@@H](CCCCN)C(=O)N[C@@H](CCC(=O)O)C(=O)N[C@@H](CO)C(=O)N[C@@H](CCCCN)C(=O)N[C@@H](CCCCN)C(=O)N1CCC[C@H]1C(=O)N1CCC[C@H]1C(=O)N[C@@H](C)C(=O)N[C@@H](CCCCN)C(=O)N[C@@H](CC(C)C)C(=O)N[C@@H](CCC(N)=O)C(=O)N1CCC[C@H]1C(=O)N[C@@H](CCCNC(=N)N)C(=O)O)C(C)C  AUC(0-90) (ELISA; human, both sexes, plasma; intravenous infusion, 5 µg/kg/h, 65 min infusion): 14.9 ± 2.9 ng·h/mL
CC[C@H](C)[C@H](NC(=O)[C@H](CCCCN)NC(=O)CNC(=O)[C@H](CC(C)C)NC(=O)[C@@H](NC(=O)[C@H](C)NC(=O)[C@H](CCCCN)NC(=O)CNC(=O)[C@H](C)NC(=O)CNC(=O)[C@H](CCCCN)NC(=O)[C@H](CCSC)NC(=O)[C@H](CCCCN)NC(=O)[C@@H](NC(=O)[C@H](Cc1c[nH]c2ccccc12)NC(=O)[C@H](CC(C)C)NC(=O)[C@H](CCC(N)=O)NC(=O)[C@H](CCCCN)NC(=O)[C@H](CC(C)C)NC(=O)[C@@H](N)CC(C)C)[C@@H](C)O)C(C)C)C(=O)N[C@@H](CCCCN)C(=O)NCC(=O)N[C@@H](CC(C)C)C(=O)N[C@@H](CC(C)C)C(=O)O  Stern-Volmer constant (acrylamide quenching; PBS, no lipid; 2 µM, together with: acrylamide): 15.4 ± 0.17 M⁻¹
CC(C)[C@H](NC(=O)CNC(=O)[C@H](CCC(N)=O)NC(=O)[C@H](C)N)C(=O)O  subjects given concomitant medication (human; intravenous infusion, 15 mg/kg/h, 2 h infusion): 0%
[11CH3]n1c(=O)n(CCCO)c(=O)c2c1nc(Oc1cccc(OC(F)(F)F)c1)n2Cc1ccc(Cl)cc1  tracer uptake (ex vivo biodistribution; Sprague Dawley rat, pancreas; 30 min post injection): 1.49 ± 0.04 %ID/g
CC(=CCC(O)C(C)=Cc1csc(C)n1)CC=CC(C)C(O)C(C)C(=O)C(C)(C)C(O)CC(=O)O (centres unmarked)  Tmax (human, plasma; intravenous infusion, 11.3 mg/m2 KOS-1584, 3 h infusion, cycle 1): 3.25 ± 0.51 h
CN1CCC[C@@H]1C(=O)N[C@@H](Cc1ccc(-c2ccccc2)cc1)B(O)O  tolerability (Pf3D7 0087/N9, NODscidIL2Rγnull mice infected with P. falciparum; oral, dose not given): not toxic
CC[C@H](C)[C@H](NC(=O)CN)C(=O)NCC(=O)N[C@@H](C)C(=O)N[C@H](C(=O)N[C@@H](CC(C)C)C(=O)N[C@@H](CCCCN)C(=O)N[C@H](C(=O)N[C@@H](CC(C)C)C(=O)N[C@H](C(=O)N[C@H](C(=O)NCC(=O)N[C@@H](CC(C)C)C(=O)N1CCC[C@H]1C(=O)N[C@@H](C)C(=O)N[C@@H](CC(C)C)C(=O)N[C@H](C(=O)N[C@@H](CO)C(=O)N[C@@H](Cc1c[nH]c2ccccc12)C(=O)N[C@H](C(=O)N[C@@H](CCCCN)C(=O)N[C@@H](CCCNC(=N)N)C(=O)N[C@@H](CCCCN)C(=O)N[C@@H](CCCNC(=N)N)C(=O)N[C@@H](CCC(N)=O)C(=O)N[C@@H](CCC(N)=O)C(N)=O)[C@@H](C)CC)[C@@H](C)CC)[C@@H](C)O)[C@@H](C)O)C(C)C)C(C)C  LD100 (BALB/c mouse; iv, single dose): ~3 mg/kg
N=C(N)NCc1ccc(C(=O)NCCCC[C@H](NC(=O)N[C@@H](CCC(=O)O)C(=O)O)C(=O)O)cc1[131I]  tissue uptake (SCID mouse, PC-3 xenografts, liver; 14 h): 0.38 ± 0.26 %ID/g
CC[C@H](C)[C@H](NC(=O)[C@@H](Cc1ccccc1)NC)C(=O)N[C@@H](CO)C(=O)N[C@H](CCCNC(=N)N)C(=O)N[C@@H](C(=O)N[C@H](C(=O)N[C@@H](CO)C(=O)N[C@H]1C(=O)N[C@@H](C)C(=O)N[C@@H](CC(C)C)C(=O)N[C@@H]([C@@H](C)CC)C(=O)O[C@H]1C)[C@@H](C)CC)[C@@H](C)CC  acetonitrile share for dissolution (acetonitrile-water; TFA salt): ~35%
CC(CCC(=O)NCC(=O)O)C1CCC2C3C(O)CC4CC(OC5OC(C(=O)O)C(O)C(O)C5O)CCC4(C)C3CCC12C (centres unmarked)  glucuronide to parent ratio (human, C/C genotype, plasma; dose not given, geometric mean, sex-adjusted): 0.42
CSCC[C@H](NC(=O)CNC(=O)[C@H](CC(=O)O)NC(=O)[C@@H](NC(=O)[C@@H](NC(=O)[C@@H](NC(=O)CNC(=O)[C@H](CCC(N)=O)NC(=O)[C@H](CCSC)NC(=O)[C@H](CC(=O)O)NC(=O)[C@H](C)NC(=O)[C@H](C)NC(=O)[C@@H](NC(=O)[C@H](CO)NC(=O)[C@@H](N)CC(C)C)[C@@H](C)O)C(C)C)C(C)C)[C@@H](C)O)C(=O)N[C@@H](C)C(=O)N[C@@H](CO)C(=O)NCC(=O)N[C@@H](CC(C)C)C(=O)N[C@@H](CC(=O)O)C(=O)N[C@@H](CCCCN)C(=O)N[C@@H](CC(=O)O)C(=O)N[C@@H](Cc1ccc(O)cc1)C(=O)N[C@@H](CC(C)C)C(=O)N[C@@H](CCCCN)C(=O)N1CCC[C@H]1C(=O)N[C@@H](CC(=O)O)C(=O)N[C@@H](CC(=O)O)C(=O)O  Cmax (human, serum; intravenous, 0.83 mg/kg, patients, infusion): 1010 ng/mL
Cc1cc(C)c(-c2cc(C)c(OP(=O)([O-])OCCC[C@H](C(=O)[O-])N3CCN(CC(=O)[O-])CCN(CC(=O)[O-])CCN(CC(=O)[O-])CC3)cc2C)c(C)c1.[Gd+3]  activation enthalpy water exchange (O-17 NMR; PBS; concentration not given, no protein): 56.1 kJ/mol
CCCCCCCC(=O)NCCCC[C@H](NC(=O)[C@H](Cc1ccccc1)NC(=O)[C@@H](CCCNC(=N)N)NC(=O)[C@@H](N)Cc1ccc(O)cc1)C(N)=O  clearance (male CD-1 mouse, plasma; intravenous, 3 mg/kg): 1.19 mL/min
C[S]1CC[S]2CC[P](CO)(CO)[99Tc+]12.[C-]#[O+].[C-]#[O+].[C-]#[O+]  uptake in large intestine (CF-1 mouse; intravenous, 4 h): 52.4 %ID
